Published values pooled from the literature.
Compare with care: the assays were run in different laboratories. ± marks the error that the study gave.

SMILES	assay	test system	conditions	quantity	result
Cn1cc(-c2cnc3cnn(S(=O)(=O)c4cnc5ccc(-c6cnn(C)c6)cn45)c3c2)cn1	–	healthy Chinese men, plasma	oral, 300 mg single dose, high-fat meal	apparent volume of distribution	193 L
O=C(Nc1nc2cccc(-c3ccc(CN4CCS(=O)(=O)CC4)cc3)n2n1)C1CC1	–	healthy subjects	oral, 100 mg single dose, 1 h after itraconazole, fasting, mean, together with: itraconazole 200 mg	apparent clearance (CL/F)	33.3 L/h
CC#CC(=O)N1CCC[C@H]1c1nc(-c2ccc(C(=O)Nc3ccccn3)cc2)c2c(N)nccn12	–	Japanese patients, plasma	oral, 100 mg twice daily, day 8, fasting, multiple dose, arithmetic mean	apparent volume of distribution (Vz/F)	220 ± 107 L
O=C(C1CCCCC1)N1CC(=O)N2CCc3ccccc3[C@@H]2C1	–	healthy men, plasma	oral, 40 mg/kg racemic praziquantel, geometric mean, together with: ritonavir 100 mg/day for 14 days	apparent oral clearance	2240 L/h
CC(C)c1nc(CN(C)C(=O)N[C@H](C(=O)N[C@@H](Cc2ccccc2)C[C@H](O)[C@H](Cc2ccccc2)NC(=O)OCc2cncs2)C(C)C)cs1	median	HIV and HCV patients, plasma	oral, lopinavir/ritonavir twice daily	apparent clearance	0.17 L/h/kg
CC[C@H](C)[C@H](NC(=O)[C@H](Cc1ccccc1)NC(=O)[C@H](CCC(=O)O)NC(=O)[C@H](CCCCNC(=O)COCCOCCNC(=O)COCCOCCNC(=O)CC[C@H](NC(=O)CCCCCCCCCCCCCCCCC(=O)O)C(=O)O)NC(=O)[C@H](C)NC(=O)[C@H](C)NC(=O)[C@H](CCC(N)=O)NC(=O)CNC(=O)[C@H](CCC(=O)O)NC(=O)[C@H](CC(C)C)NC(=O)[C@H](Cc1ccc(O)cc1)NC(=O)[C@H](CO)NC(=O)[C@H](CO)NC(=O)[C@@H](NC(=O)[C@H](CC(=O)O)NC(=O)[C@H](CO)NC(=O)[C@@H](NC(=O)[C@H](Cc1ccccc1)NC(=O)[C@@H](NC(=O)CNC(=O)[C@H](CCC(=O)O)NC(=O)C(C)(C)NC(=O)[C@@H](N)Cc1cnc[nH]1)[C@@H](C)O)[C@@H](C)O)C(C)C)C(=O)N[C@@H](C)C(=O)N[C@@H](Cc1c[nH]c2ccccc12)C(=O)N[C@@H](CC(C)C)C(=O)N[C@H](C(=O)N[C@@H](CCCNC(=N)N)C(=O)NCC(=O)N[C@@H](CCCNC(=N)N)C(=O)NCC(=O)O)C(C)C	–	Caucasian subjects	subcutaneous, 1.0 mg, steady state, once weekly, geometric mean	apparent volume of distribution	7.84 L
CC(C)Cc1ccc(C(C)C(=O)O)cc1 (stereo not shown)	–	1-octanol/buffer	pH 7.5	apparent partition coefficient	5.2
C[C@@H]1CCO[C@H]2Cn3cc(C(=O)NCc4ccc(F)cc4F)c(=O)c(O)c3C(=O)N12	population PK model	HIV-infected patients	oral	apparent clearance (CL/F)	0.901 L/h
COC(=O)N[C@H](C(=O)N1CCC[C@H]1c1nc(-c2ccc(-c3ccc(-c4c[nH]c([C@@H]5CCCN5C(=O)[C@@H](NC(=O)OC)C(C)C)n4)cc3)cc2)c[nH]1)C(C)C	–	Japanese HCV patients	typical male 56 kg, together with: asunaprevir	apparent clearance (CL/F)	5.29 L/h
Cn1c(-c2ccc(C(N)=O)cc2F)nnc1C(C)(C)Oc1c(F)cc(Cl)cc1F	–	young non-Japanese healthy subjects, plasma	oral, 0.2 mg once daily, 3 mg loading day 1, median, last dosing day	apparent volume of distribution Vz/F	2000 L

Some of these lines once more:
SMILES	assay	test system	conditions	quantity	result
COC(=O)N[C@H](C(=O)N1CCC[C@H]1c1nc(-c2ccc(-c3ccc(-c4c[nH]c([C@@H]5CCCN5C(=O)[C@@H](NC(=O)OC)C(C)C)n4)cc3)cc2)c[nH]1)C(C)C	–	Japanese HCV patients	typical male 56 kg, together with: asunaprevir	apparent clearance (CL/F)	5.29 L/h
